Measured values of several laboratories.
“And” joins repeats or separate records; there may be more than shown.
Target: Serine/threonine-protein kinase Chk1 (CHEK1, Homo sapiens, UniProt O14757)

O=C(Cc1ccc(OCc2ccccc2)cc1)NC1(C(=O)O)CCN(C(=O)c2ccc(-c3cccc(Cl)c3)cc2)CC1  activity vs control (enzyme activity, inhibitor; 10 µM): 148%
CC(C)=CC1OC(C)(C)C2C=C3C(=O)C(Cl)=CC(O)C3C3C(O)C4OC4C(=O)C132 (centres unmarked)  remaining binding (cell-free assay, competition with immobilised ligand; 10 µM): 90%
CN1CCN(Cc2ccc(-c3ccc(CO[C@H]4CCC[C@@H]4NC(=O)c4cc(-c5cnn(C)c5)cnc4N)cc3)cc2)CC1  inhibition (enzyme activity, inhibitor; 0.1 µM): -7%
Cc1cccc(-c2ccc3nc(NC(=O)C4CCOCC4)nn3c2)c1  remaining activity (enzyme activity, Dundee kinase panel; 10 µM): 70%
Cc1cccc(O[C@H]2CCC[C@@H](C(C)CNCc3ccncc3)C2)c1 (relative stereo)  inhibition (kinase activity, kinome panel screening; 10 µM): -9%
C=CC(=O)N1CCc2ccc(-n3c(=O)ccc4cnc5ccc(-c6cnn(C)c6)cc5c43)cc21  remaining binding (KINOMEscan; 1 µM; reference: DMSO control): 100%
C=CC(=O)N1CCCC(n2c(=O)c3ncccc3n(Cc3ccc(Oc4ccccc4)cc3)c2=O)C1 (centres unmarked)  remaining binding (cell-free assay, competition with immobilised ligand; 1 µM): 92%
CN1CCN(Cc2ccc(NC(=O)c3cccc(C#Cc4cnc(N)c5ncccc45)c3)cc2C(F)(F)F)CC1  remaining binding (cell-free assay, competition with immobilised ligand; 50 nM): 98%
COc1cc(Nc2nccc(-c3cnn4nc(OC)ccc34)n2)cc(C(F)(F)F)c1  remaining binding (binding, competition with immobilised ligand; 1 µM): 100%
CCn1cc(C(=O)O)c(=O)c2c(N)c(F)c(NC3CCCCC3)cc21  inhibition (kinase activity; 0.1 µM, with: ATP at Km): -10%
Nc1nc(Nc2ccccc2)sc1C(=O)c1ccccc1  remaining activity (enzyme activity, inhibitor; 10 µM): 24%
NC(=O)[C@@H](O)C[C@H]1CCc2sc3ncnc(O[C@H]4CC[C@H](N5CCOCC5)CC4)c3c21  inhibition (enzyme activity, inhibitor; 10 µM): 1%
Cc1cnc2nc1Nc1cccc(c1)COC/C=C/COCc1cc(ccc1OCCN1CCOCC1)N2  remaining signal (cell-free assay; 0.1 µM): 96%
O=C(O)CCC(=O)c1cccc(NS(=O)(=O)c2c[nH]c3ncccc23)c1  remaining activity (kinase activity, radiometric; 10 µM): 108%
Cc1ccc(C)c(-c2ccc3nc(NC(=O)C4CCCCC4)nn3c2)c1  remaining activity (enzyme activity, Dundee kinase panel; 10 µM): 77%
COc1ccc(NC(=O)Nc2ccc3c(c2)C(=O)N(C(C)CO)CC(C)C(CN(C)Cc2ccc4c(c2)OCO4)O3)cc1 (centres unmarked)  remaining binding (binding, competition with immobilised ligand; 10 µM): 100%
C=CC(=O)N1Cc2nc(-c3cc(-c4cc(Cl)cnc4Cl)c(F)cc3F)n(-c3ccncn3)c2C1  inhibition (cell-free assay, inhibitor; 1 µM): 5.3%
COc1c(OCCCN2CCOCC2)ccc2c1N=C(NC(=O)c1cnc(N)nc1)N1CCN=C21  remaining activity (kinase activity, inhibitor; 1 µM; reference: untreated control): 89%
O=C=[N][Ru-4]123([n]4c5ccc(O)cc5c5c6c(c7cc(F)c[n+]1c7c54)C(=O)NC6=O)[S+]1CC[S+]2CC[S+]3CC1 (centres unmarked)  remaining activity (enzyme activity; 100 nM, human enzyme, with: 10 µM ATP; reference: untreated): 97%
CNC(=O)C1CCN(c2cc(C)c(F)cc2NC(=O)c2ccc(-c3cc(O)ccc3C)c(C)c2)CC1  remaining binding (binding, competition with immobilised ligand; 1 µM): 99%
C=CC(=O)Nc1cccc(-c2cnc3[nH]cc(C(=O)NC(C)(C)C)c3n2)c1  inhibition (kinase activity; 0.1 µM): 22% and 12%
CCN1CCN(Cc2ccc(C(=O)Nc3ccc(C)c(NCc4cnc5[nH]ccc5c4OC)c3)cc2C(F)(F)F)CC1  remaining binding (binding, competition with immobilised ligand; 1 µM): 100%
O=c1c(-c2ccc(Cl)c(CN3CCOCC3)c2)coc2cc(O)ccc12  remaining activity (enzyme activity, inhibitor; 1 µM): 95%

Repeated from above:
O=C=[N][Ru-4]123([n]4c5ccc(O)cc5c5c6c(c7cc(F)c[n+]1c7c54)C(=O)NC6=O)[S+]1CC[S+]2CC[S+]3CC1 (centres unmarked)  remaining activity (enzyme activity; 100 nM, human enzyme, with: 10 µM ATP; reference: untreated): 97%
C=CC(=O)Nc1cccc(-c2cnc3[nH]cc(C(=O)NC(C)(C)C)c3n2)c1  inhibition (kinase activity; 0.1 µM): 22% and 12%
CN1CCN(Cc2ccc(-c3ccc(CO[C@H]4CCC[C@@H]4NC(=O)c4cc(-c5cnn(C)c5)cnc4N)cc3)cc2)CC1  inhibition (enzyme activity, inhibitor; 0.1 µM): -7%
